{"data": "Results of several laboratories", "PTGS2": "Prostaglandin G/H synthase 2 (PTGS2, Homo sapiens, UniProt P35354)", "CPL": "CPL (Toxoplasma gondii, UniProt Q6DMN0)", "PDE2A": "cGMP-dependent 3',5'-cyclic phosphodiesterase (PDE2A, Homo sapiens, UniProt O00408)", "note": "Protocols differ between the studies behind these lines.", "UniProt P35354, sequence (whole entry, looked up)": "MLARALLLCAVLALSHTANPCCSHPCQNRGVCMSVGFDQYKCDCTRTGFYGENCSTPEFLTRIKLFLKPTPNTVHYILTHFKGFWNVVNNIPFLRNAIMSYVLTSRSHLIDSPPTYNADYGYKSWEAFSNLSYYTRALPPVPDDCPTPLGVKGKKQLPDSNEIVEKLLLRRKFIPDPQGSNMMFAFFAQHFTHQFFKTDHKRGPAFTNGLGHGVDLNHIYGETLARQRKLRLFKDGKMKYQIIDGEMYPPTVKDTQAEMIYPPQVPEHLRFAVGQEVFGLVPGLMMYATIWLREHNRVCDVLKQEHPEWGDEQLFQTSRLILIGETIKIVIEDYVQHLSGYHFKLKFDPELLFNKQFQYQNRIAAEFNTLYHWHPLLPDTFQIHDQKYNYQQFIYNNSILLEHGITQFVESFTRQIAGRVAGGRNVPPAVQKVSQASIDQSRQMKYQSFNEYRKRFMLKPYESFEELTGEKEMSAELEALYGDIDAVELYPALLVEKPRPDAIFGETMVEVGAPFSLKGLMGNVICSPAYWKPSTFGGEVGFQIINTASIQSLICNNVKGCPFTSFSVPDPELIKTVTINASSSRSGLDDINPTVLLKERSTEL", "UniProt O00408, sequence (whole entry, looked up)": "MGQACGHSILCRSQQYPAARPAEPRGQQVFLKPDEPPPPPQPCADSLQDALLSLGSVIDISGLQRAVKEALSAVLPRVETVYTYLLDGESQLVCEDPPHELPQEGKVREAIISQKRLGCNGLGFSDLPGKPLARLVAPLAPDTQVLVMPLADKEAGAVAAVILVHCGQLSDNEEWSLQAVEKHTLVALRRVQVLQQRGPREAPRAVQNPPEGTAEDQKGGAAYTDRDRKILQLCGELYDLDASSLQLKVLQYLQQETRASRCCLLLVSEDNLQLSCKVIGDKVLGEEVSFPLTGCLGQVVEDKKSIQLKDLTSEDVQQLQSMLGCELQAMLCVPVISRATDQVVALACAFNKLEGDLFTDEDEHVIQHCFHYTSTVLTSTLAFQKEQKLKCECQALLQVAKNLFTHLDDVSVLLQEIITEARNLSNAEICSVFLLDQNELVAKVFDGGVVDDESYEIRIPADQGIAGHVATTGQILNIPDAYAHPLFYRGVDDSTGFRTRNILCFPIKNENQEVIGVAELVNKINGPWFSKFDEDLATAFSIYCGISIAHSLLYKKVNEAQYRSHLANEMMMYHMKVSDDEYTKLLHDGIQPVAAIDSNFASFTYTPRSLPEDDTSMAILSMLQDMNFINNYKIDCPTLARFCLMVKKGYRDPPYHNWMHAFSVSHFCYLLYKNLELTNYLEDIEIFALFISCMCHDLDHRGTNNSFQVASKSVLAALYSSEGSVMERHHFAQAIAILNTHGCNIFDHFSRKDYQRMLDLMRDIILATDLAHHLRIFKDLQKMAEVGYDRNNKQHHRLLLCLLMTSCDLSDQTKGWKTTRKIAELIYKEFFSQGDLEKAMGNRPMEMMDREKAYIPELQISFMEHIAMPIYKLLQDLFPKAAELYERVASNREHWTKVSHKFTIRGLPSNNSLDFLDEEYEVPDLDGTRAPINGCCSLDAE", "UniProt P35462, sequence (whole entry, looked up)": "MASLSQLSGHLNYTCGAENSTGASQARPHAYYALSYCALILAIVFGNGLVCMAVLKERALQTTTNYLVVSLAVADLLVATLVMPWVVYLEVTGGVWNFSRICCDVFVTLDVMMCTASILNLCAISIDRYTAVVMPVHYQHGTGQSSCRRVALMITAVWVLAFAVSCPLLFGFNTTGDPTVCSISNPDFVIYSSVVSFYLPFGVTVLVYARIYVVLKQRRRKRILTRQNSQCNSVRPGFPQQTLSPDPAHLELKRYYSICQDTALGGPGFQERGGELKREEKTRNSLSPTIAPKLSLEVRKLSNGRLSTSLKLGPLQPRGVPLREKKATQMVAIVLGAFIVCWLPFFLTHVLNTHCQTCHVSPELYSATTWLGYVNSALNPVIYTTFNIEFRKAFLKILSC", "UniProt P08575, sequence (whole entry, looked up)": "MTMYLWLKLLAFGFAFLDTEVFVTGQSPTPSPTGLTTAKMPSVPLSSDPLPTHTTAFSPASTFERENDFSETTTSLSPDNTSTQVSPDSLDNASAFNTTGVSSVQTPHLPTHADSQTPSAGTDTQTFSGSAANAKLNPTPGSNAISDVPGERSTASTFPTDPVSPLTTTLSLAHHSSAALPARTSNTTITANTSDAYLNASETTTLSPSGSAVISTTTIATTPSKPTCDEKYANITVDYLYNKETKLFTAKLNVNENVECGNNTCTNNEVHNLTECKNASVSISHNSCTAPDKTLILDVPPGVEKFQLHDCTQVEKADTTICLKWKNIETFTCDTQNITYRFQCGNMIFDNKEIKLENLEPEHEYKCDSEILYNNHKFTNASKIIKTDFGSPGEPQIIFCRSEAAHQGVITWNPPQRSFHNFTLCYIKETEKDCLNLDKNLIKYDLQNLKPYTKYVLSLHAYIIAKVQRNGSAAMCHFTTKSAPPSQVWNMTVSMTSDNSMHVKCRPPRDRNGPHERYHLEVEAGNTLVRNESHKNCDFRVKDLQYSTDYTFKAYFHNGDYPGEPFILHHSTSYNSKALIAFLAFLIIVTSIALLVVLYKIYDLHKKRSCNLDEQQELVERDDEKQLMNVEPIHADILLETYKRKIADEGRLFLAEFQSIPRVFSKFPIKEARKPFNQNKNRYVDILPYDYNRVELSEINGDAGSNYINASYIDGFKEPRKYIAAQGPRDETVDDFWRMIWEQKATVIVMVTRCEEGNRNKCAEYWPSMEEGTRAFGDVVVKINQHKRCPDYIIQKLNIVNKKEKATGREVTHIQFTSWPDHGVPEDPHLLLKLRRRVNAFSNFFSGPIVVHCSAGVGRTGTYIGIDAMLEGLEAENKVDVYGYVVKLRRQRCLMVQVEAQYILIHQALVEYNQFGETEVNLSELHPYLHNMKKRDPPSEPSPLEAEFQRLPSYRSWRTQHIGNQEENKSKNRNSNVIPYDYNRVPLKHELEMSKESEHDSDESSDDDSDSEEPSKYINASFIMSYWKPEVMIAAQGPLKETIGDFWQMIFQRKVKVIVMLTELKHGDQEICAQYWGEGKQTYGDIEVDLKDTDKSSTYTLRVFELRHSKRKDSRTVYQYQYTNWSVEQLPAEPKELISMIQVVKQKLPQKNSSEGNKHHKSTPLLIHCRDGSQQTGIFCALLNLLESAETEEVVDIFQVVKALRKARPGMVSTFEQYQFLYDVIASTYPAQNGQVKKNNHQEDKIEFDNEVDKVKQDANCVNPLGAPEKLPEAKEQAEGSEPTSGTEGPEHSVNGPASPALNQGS", "UniProt P62937, sequence (whole entry, looked up)": "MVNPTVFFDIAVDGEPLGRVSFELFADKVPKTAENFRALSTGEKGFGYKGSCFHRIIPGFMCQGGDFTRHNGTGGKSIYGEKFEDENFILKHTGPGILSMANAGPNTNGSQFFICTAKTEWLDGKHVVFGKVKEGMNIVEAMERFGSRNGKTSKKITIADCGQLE"}
{"SMILES": "N[C@@H](CCC(=O)N[C@@H](CS[Se]Cc1ccc(C(=O)Nc2cc(C(F)(F)F)c(Br)c(C(F)(F)F)c2)cc1)C(=O)NCC(=O)O)C(=O)O", "target": "PTPRC (Homo sapiens, UniProt P08575)", "test": "enzyme activity", "conditions": "together with: pNPP, GSH 1 mM", "scale": "relative to: IC50 PTPRC over mPTPA", "selectivity ratio": "> 100"}
{"SMILES": "Cc1ccc(C2Nc3nnc(-c4ccncc4)n3C(N)=C2C#N)cc1 (stereo not drawn)", "target": "PTGS2", "test": "enzyme activity", "scale": "relative to: IC50 COX-1 over IC50 COX-2", "selectivity ratio": 5}
{"SMILES": "N#Cc1nc(N2CCOCC2)nc(N(Cc2ccc(F)cc2)CC2CCNCC2)n1", "target": "CPL", "test": "enzyme activity, inhibitor", "scale": "relative to: human over Toxoplasma IC50", "selectivity ratio": 0.8}
{"SMILES": "COCCCN1CCc2c(Cc3ccc(Cl)cc3)[nH]c3c(OC(F)F)ccc(c23)C1=O", "target": "PDE2A", "test": "enzyme activity", "scale": "relative to: IC50 PDE5A1 over PDE2A", "selectivity ratio": "> 1200"}
{"SMILES": "N#CC1=C(N)n2c(nnc2-c2ccccc2)NC1c1ccc(Br)cc1 (stereo not drawn)", "target": "PTGS2", "test": "enzyme activity", "scale": "relative to: IC50 COX-1 over IC50 COX-2", "selectivity ratio": 13}
{"SMILES": "CC(C)CCN(Cc1ccccc1)c1nc(C#N)nc(N2CCOCC2)n1", "target": "CPL", "test": "enzyme activity, inhibitor", "scale": "relative to: human over Toxoplasma IC50", "selectivity ratio": 0.6}
{"SMILES": "COc1ccccc1N1CCN(CCCCNC(=O)/N=N/c2ccc(F)cc2)CC1", "target": "DRD3 (Homo sapiens, UniProt P35462)", "test": "radioligand binding", "system": "CHO membranes", "conditions": "together with: [3H]spiperone", "scale": "relative to: Ki 5-HT1A over Ki D3", "selectivity ratio": 1.8}
{"SMILES": "Cc1cc(O)cc(C)c1C[C@H](N)C(=O)N[C@@H]1CSSC[C@@H](NC(=O)[C@@H](N)Cc2c(C)cc(O)cc2C)C(=O)NCC(=O)N[C@@H](Cc2ccccc2)C(=O)NNC(=O)[C@H](Cc2ccccc2)NC(=O)CNC1=O", "target": "human opioid receptors", "test": "binding", "scale": "relative to: DOR over MOR", "selectivity ratio": "16 fold"}
{"SMILES": "N#CC1=C(N)n2c(nnc2-c2ccncc2)NC1c1ccc(Br)cc1 (stereo not drawn)", "target": "PTGS2", "test": "enzyme activity", "scale": "relative to: IC50 COX-1 over IC50 COX-2", "selectivity ratio": 5}
{"SMILES": "CC(C)CCN(Cc1cccnc1)c1nc(C#N)nc(N2CCOCC2)n1", "target": "CPL", "test": "enzyme activity, inhibitor", "scale": "relative to: human over Toxoplasma IC50", "selectivity ratio": 0.7}
{"SMILES": "CC(C)[C@@H](NC(=O)[C@@H](C)c1cccc(C(=O)c2ccccc2)c1)C(=O)N[C@H](CCC(=O)O)C(=O)N[C@@H](C(=O)N[C@H](CCC(=O)O)C(=O)O)C(C)C", "target": "PTGS2", "test": "fluorescence", "scale": "relative to: COX-1 IC50 over COX-2 IC50", "selectivity ratio": 4.8}
{"SMILES": "CC(C)(F)CCN(Cc1ccc(F)cc1)c1nc(C#N)nc(N2CCOCC2)n1", "target": "CPL", "test": "enzyme activity, inhibitor", "scale": "relative to: human over Toxoplasma IC50", "selectivity ratio": 1.5}
{"SMILES": "CC(=O)OC1OC(OC(C)=O)C2CC(O)(C3(C)CCCC(C)(C)C3)CCC12 (stereo not drawn)", "target": "PPIA (Homo sapiens, UniProt P62937)", "test": "PPIase activity, inhibitor", "scale": "relative to: CypD IC50 over target IC50", "selectivity ratio": "~4 fold"}
{"SMILES": "CC(C)CCN(Cc1cccc(C(F)(F)F)c1)c1nc(C#N)nc(N2CCOCC2)n1", "target": "CPL", "test": "enzyme activity, inhibitor", "scale": "relative to: human over Toxoplasma IC50", "selectivity ratio": 0.2}
{"SMILES": "Nc1nc(Cl)nc2c1ncn2Cc1cc(OCC(F)F)cc(OC(F)F)c1", "target": "PDE2A", "test": "enzyme activity, inhibitor", "scale": "relative to: PDE2A over PDE8A1", "selectivity ratio": "392 fold"}
{"note": "For quick reference, copied from above:"}
{"SMILES": "CC(=O)OC1OC(OC(C)=O)C2CC(O)(C3(C)CCCC(C)(C)C3)CCC12 (stereo not drawn)", "target": "PPIA (Homo sapiens, UniProt P62937)", "test": "PPIase activity, inhibitor", "scale": "relative to: CypD IC50 over target IC50", "selectivity ratio": "~4 fold"}
